Published values of several laboratories.
Each numbered part is a random draw from the data of one study; scales do not carry over between parts.

Block 1
Target: 85/88 kDa calcium-independent phospholipase A2 (PLA2G6, Homo sapiens, UniProt O60733)
Effect on: enzyme activity
Mode: inhibitor
Method: mixed micelle
Tested at: 0.091 mole fraction
With `CCCC[C@@H](COCC(=O)O)NC(=O)C(=O)CCCCc1ccc(OC)cc1` the inhibition was less than 25%.
The inhibition of `CCCC[C@H](NC(=O)C(=O)CCCCc1ccc(OC)cc1)C(=O)NCC(=O)OCc1ccccc1` is reported as greater than 95%.
With `CCCC[C@H](NC(=O)C(=O)CCCCc1ccc(OC)cc1)C(=O)NCC(=O)OC(C)(C)C` the inhibition was greater than 95%.
For `CCCC[C@H](NC(=O)C(=O)CCCCc1ccc(OC)cc1)C(=O)NCCCC(=O)OC(C)(C)C`, the inhibition was greater than 95%.
The inhibition of `CCCC[C@H](NC(=O)C(=O)CCCCc1ccccc1)C(=O)NCC(=O)O` is reported as less than 25%.

Block 2
Target: 85/88 kDa calcium-independent phospholipase A2 (PLA2G6, Homo sapiens, UniProt O60733)
Effect on: enzyme activity
Mode: inhibitor
Method: mixed micelle
With: PAPC substrate in Triton X-100 micelles
`O=C(C(F)CCCc1ccccc1)C(F)(F)F` (stereo not drawn) gave an XI(50) of 0.0025 mole fraction.
`CCCCCCOc1ccc(CCCCC(=O)C(F)(F)C(F)(F)F)cc1` has an XI(50) of 0.0084 mole fraction.
With `CCCCCCCCc1ccc(OCCCC(=O)C(F)(F)C(F)(F)F)cc1` the XI(50) was 0.0024 mole fraction.
With `O=C(C(F)CCCc1ccccc1)C(F)(F)C(F)(F)F` (stereo not drawn) the XI(50) was 0.0005 mole fraction.
`O=C(CCCOc1ccccc1)C(F)(F)C(F)(F)F` gave an XI(50) of 0.0036 mole fraction.

Mixed results
Target: 85/88 kDa calcium-independent phospholipase A2 (PLA2G6, Homo sapiens, UniProt O60733)
Effect on: enzyme activity
Mode: inhibitor
Method: mixed micelle
Sequence (O60733 1-806, as in one of the studies): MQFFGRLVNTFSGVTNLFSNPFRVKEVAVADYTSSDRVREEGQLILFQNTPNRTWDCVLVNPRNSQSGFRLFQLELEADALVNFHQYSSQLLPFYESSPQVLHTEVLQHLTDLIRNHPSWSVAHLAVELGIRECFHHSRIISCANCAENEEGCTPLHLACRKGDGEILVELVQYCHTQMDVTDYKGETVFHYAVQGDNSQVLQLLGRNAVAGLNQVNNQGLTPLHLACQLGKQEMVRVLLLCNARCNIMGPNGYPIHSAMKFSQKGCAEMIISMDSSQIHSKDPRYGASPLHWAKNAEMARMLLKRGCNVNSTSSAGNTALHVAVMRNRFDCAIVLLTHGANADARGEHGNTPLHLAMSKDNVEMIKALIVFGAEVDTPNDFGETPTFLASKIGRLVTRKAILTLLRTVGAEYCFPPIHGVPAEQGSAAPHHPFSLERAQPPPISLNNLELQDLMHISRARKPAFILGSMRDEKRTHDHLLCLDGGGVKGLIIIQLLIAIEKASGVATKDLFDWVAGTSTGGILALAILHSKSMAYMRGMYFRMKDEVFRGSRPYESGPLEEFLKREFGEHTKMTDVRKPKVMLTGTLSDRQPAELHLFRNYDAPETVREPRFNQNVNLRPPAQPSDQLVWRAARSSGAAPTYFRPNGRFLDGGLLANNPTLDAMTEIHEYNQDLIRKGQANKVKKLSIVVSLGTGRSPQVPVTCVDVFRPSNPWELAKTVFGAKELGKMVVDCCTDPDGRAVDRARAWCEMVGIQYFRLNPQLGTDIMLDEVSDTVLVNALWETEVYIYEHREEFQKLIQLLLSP
The IC50 of `CCCCCCCCSCC(=O)C(F)(F)F` is reported as 0.0002 mole fraction (PAPC/Triton X-100 mixed micelles; mole fraction in micelle surface).
`O=C(CCCCc1ccccc1)C(F)(F)C(F)(F)F` gave an XI(50) of 0.0073 mole fraction.

A few entries again (block 1):
The inhibition of `CCCC[C@H](NC(=O)C(=O)CCCCc1ccc(OC)cc1)C(=O)NCC(=O)OCc1ccccc1` is reported as greater than 95%.
With `CCCC[C@H](NC(=O)C(=O)CCCCc1ccc(OC)cc1)C(=O)NCC(=O)OC(C)(C)C` the inhibition was greater than 95%.
